Experimental data of several laboratories.
Numbers after ± are the reported error.
Sequence of UniProt O60674 (whole entry, looked up): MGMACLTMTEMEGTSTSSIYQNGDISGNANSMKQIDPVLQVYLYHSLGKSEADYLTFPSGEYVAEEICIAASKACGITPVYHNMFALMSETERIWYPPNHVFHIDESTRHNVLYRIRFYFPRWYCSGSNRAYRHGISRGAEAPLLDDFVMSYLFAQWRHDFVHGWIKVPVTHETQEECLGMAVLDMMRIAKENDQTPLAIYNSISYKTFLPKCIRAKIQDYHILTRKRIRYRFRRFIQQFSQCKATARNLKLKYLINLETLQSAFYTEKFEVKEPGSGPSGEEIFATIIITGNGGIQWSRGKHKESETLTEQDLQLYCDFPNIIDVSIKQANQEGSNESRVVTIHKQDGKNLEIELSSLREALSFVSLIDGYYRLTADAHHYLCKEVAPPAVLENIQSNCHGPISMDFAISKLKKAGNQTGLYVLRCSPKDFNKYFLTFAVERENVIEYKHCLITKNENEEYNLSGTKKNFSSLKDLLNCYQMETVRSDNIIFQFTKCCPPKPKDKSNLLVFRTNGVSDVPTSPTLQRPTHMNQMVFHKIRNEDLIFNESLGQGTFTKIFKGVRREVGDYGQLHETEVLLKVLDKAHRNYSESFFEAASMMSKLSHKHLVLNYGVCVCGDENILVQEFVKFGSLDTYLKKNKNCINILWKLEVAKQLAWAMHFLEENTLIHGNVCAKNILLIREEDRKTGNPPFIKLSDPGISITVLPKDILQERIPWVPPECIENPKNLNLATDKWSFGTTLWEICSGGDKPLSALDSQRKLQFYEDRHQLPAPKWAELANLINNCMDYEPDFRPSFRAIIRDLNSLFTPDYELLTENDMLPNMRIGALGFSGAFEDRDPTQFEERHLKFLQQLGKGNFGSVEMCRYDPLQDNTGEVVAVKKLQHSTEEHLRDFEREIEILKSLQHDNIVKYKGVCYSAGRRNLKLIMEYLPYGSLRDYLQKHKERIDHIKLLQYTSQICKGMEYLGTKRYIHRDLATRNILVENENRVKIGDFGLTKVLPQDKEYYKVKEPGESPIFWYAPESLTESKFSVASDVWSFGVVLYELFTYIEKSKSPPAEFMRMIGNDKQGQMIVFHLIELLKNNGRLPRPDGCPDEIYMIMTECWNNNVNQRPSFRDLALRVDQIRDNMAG
Sequence of UniProt P05177 (whole entry, looked up): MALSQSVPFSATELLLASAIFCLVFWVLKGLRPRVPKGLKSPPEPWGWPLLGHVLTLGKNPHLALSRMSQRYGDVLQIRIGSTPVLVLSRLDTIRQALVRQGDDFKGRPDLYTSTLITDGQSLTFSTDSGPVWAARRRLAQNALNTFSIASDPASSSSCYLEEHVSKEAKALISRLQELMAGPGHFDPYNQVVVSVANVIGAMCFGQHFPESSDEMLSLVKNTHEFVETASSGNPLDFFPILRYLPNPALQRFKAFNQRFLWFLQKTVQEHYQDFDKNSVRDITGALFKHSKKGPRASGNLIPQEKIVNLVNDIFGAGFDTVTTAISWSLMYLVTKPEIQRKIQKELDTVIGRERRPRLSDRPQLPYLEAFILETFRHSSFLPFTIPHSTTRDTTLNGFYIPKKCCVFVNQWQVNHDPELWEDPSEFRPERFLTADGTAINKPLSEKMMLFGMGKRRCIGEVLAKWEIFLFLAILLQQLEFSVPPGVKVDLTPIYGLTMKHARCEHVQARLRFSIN

N#C[C@@H]1CC(F)(F)CN1C(=O)CNC(=O)c1ccnc2c(NC(=O)[C@H](CCCCNC(=O)CCOCCOCCOCCOCCOCCOCCNC(=O)CN3CCN(CC(=O)[O-])CCN(CC(=O)[O-])CCN(CC(=O)[O-])CC3)NC(=O)CCCc3ccc(I)cc3)cccc12.[177Lu+3]  tissue uptake (mouse, U-87 MG tumour xenograft, salivary gland; 48 h): 1.06 ± 0.5 %ID/g
[11CH3]N1CCC(NC(=O)c2cc(-c3c(O)cc(O)cc3Oc3ccc([N+](=O)[O-])cc3)on2)CC1  tissue uptake (Wistar rat, female, healthy, kidneys; intravenous, 30 min): 5.2 ± 0.4 %ID
COc1cccc(OC)c1-c1cc(C(=O)NC2(C(=O)O)C3CC4CC(C3)CC2C4)nn1-c1ccc(C(=O)NCCNC(=O)[C@H](CCCCNC(=O)[C@H](CC(C)C)NC(=O)C2OC2C(=O)O)NC(=O)CN2CCN(CC(=O)[O-])CCN(CC(=O)[O-])CCN(CC(=O)[O-])CC2)cc1C(C)C.[177Lu+3] (mixture of isomers)  tissue uptake (mouse, HT-29 xenograft, heart; 168 h post injection): 0.05 %ID/g
[123I]c1ccc2nc(-c3ccc(-n4ccnn4)nc3)cn2c1  tissue uptake (male Wistar rat, small intestine; intravenous, 4 MBq, 6 h): 0.674 ± 0.099 %ID/g
CNC(=O)C1CCCN(C(=O)C2CC3CCC2N3C(=O)[C@@H]2C[C@@H](O)CN2C(=O)NCc2cccc(Cl)c2F)C1 (mixture of isomers)  IC50 (Cytochrome P450 1A2 (CYP1A2, Homo sapiens, UniProt P05177); enzyme activity, inhibitor; human, liver microsomes): > 50 µM
O=C(NCC1OC2CCC=CCCC2O1)c1ccc([18F])nc1 (stereo not drawn)  tissue uptake (healthy female BALB/c nude mice, lungs; intravenous, 7.4 MBq per mouse, 60 min): 1.4 ± 0.1 %ID/g
COc1cccc(OC)c1-c1cc(C(=O)NC2(C(=O)O)C3CC4CC(C3)CC2C4)nn1-c1ccc(C(=O)N(C)CCCN(C)CCCN(C)C(=O)[C@H](CCCCNC(=O)[C@H](CC(C)C)NC(=O)C2OC2C(=O)O)NC(=O)CN2CCN(CC(=O)[O-])CCN(CC(=O)[O-])CCN(CC(=O)[O-])CC2)cc1C(C)C.[177Lu+3] (mixture of isomers)  tissue uptake (mouse HT-29 xenograft, small intestine; 4 h post injection, biodistribution): 1.9 %ID/g
C=CC(=O)Nc1cccc(Cn2ncc3cnc(Nc4cnn(CCOC)c4)nc32)c1  percent of control (LRRK2 human; binding, KINOMEscan; 100 nM; lower = stronger binding): 64%
CC(C)C[C@H](NC(=O)[C@@H](CCCCNC(=O)[C@@H](Cc1ccccc1)NC(=O)CCCCCCCNC(=O)CN1CCN(CC(=O)O)CCN(CC(=O)O)CCN(CC(=O)O)CC1)NC(=O)[C@H](Cc1ccc(O)cc1)NC(=O)[C@H](CO)NC(=O)[C@H](Cc1c[nH]c2ccccc12)NC(=O)[C@H](Cc1c[nH]cn1)NC(=O)[C@@H]1CCC(=O)N1)C(=O)N[C@@H](CCCNC(=N)N)C(=O)N1CCC[C@H]1C(=O)NCC(N)=O [indium-111 labelled]  tissue uptake (biodistribution; male athymic nude mice, DU-145 prostate cancer xenograft, spleen; intravenous, 0.037 MBq, 1 h post-injection): 0.41 ± 0.18 %ID/g
O=C(O)CCCOc1ccc([18F])cc1-c1cc(-c2ccccc2C(F)(F)F)n(-c2ccccc2)n1  tissue uptake (mouse, urine; intravenous, dose not given, 5 min): 0.02 ± 0.02 %ID/g
CCCC[C@H](NC(=O)CNC(=O)CNC(=O)[C@H](CCCCNC(=O)[C@H](CC(=O)O)NC(=O)C(C)c1ccc(CC(C)C)cc1)NC(=O)CN1CCN(CC(=O)O)CCN(CC(=O)O)CCN(CC(=O)O)CC1)C(=O)N[C@H]1CC(=O)NCCCC[C@@H](C(N)=O)NC(=O)[C@H](Cc2c[nH]c3ccccc23)NC(=O)[C@H](CCCNC(=N)N)NC(=O)[C@@H](Cc2ccccc2)NC(=O)[C@H](Cc2c[nH]cn2)NC1=O (stereo partly drawn) [lutetium-177 labelled]  tissue uptake (C57 mice, tumour-bearing, blood; 2 h): 0.87 ± 0.31 %ID/g
Nc1ncc(-c2cc(-c3cnn(CC(F)(F)F)c3)ncc2F)nc1C(=O)NC1CNCC(F)C1 (stereo not drawn)  remaining binding (GSK3A; KINOMEscan; 1 µM; relative to: DMSO control): 67%
CCCC[C@H](NC(=O)COCCOCCNC(=O)CN1CCN(CC(=O)O)CCN(CC(=O)O)CC1)C(=O)N[C@H]1CC(=O)NCCCC[C@@H](C(N)=O)NC(=O)[C@H](Cc2c[nH]c3ccccc23)NC(=O)[C@H](CCCNC(=N)N)NC(=O)[C@@H](Cc2ccccc2)NC(=O)[C@H](Cc2c[nH]cn2)NC1=O [fluorine-18 labelled]  tissue uptake (C57 mice B16-F10 melanoma, kidneys; intravenous, 0.37 MBq, 1 h): 2.07 ± 0.43 %ID/g
COc1cccc(OC)c1-c1cc(C(=O)NC2(C(=O)O)C3CC4CC(C3)CC2C4)nn1-c1ccc(C(=O)N(C)CCOCCN(C)C(=O)[C@H](CCCCNC(=O)[C@H](CC(C)C)NC(=O)C2OC2C(=O)O)NC(=O)CN2CCN(CC(=O)[O-])CCN(CC(=O)[O-])CCN(CC(=O)[O-])CC2)cc1C(C)C.[177Lu+3] (mixture of isomers)  tissue uptake (mouse HT-29 xenograft, large intestine; 4 h post injection, biodistribution): 2.2 %ID/g
N#C[C@@H]1CC(F)(F)CN1C(=O)CNC(=O)c1ccnc2c(NC(=O)CCOCCOCCOCCOCCOCCOCCNC(=O)[C@H](CCCCNC(=O)CN3CCN(CC(=O)[O-])CCN(CC(=O)[O-])CCN(CC(=O)[O-])CC3)NC(=O)CCCc3ccc(I)cc3)cccc12.[177Lu+3]  tissue uptake (mouse, U-87 MG tumour xenograft, spleen; 1 h): 1.09 ± 0.17 %ID/g
COc1cccc(OC)c1-c1cc(C(=O)NC2(C(=O)O)C3CC4CC(C3)CC2C4)nn1-c1ccc(C(=O)N(C)CCCN(C)C(=O)[C@H](CCCCNC(=O)[C@H](CC(C)C)NC(=O)C2OC2C(=O)O)NC(=O)CN2CCN(CC(=O)[O-])CCN(CC(=O)[O-])CCN(CC(=O)[O-])CC2)cc1C(C)C.[177Lu+3] (mixture of isomers)  tissue uptake (mouse HT-29 xenograft, small intestine; 24 h post injection, biodistribution): 0.22 %ID/g
Cc1cc(C)n(CCN(CCN)CCCCCCNC(=O)[C@@H](N)Cc2c[nH]cn2)n1.[99Tc+].[C-]#[O+].[C-]#[O+].[C-]#[O+]  tissue uptake (BALB/c nude mice, A549 xenograft, tumor; intravenous, 15 min): 2.12 ± 0.04 %IA/g
Cc1nn(-c2cccc(N)c2)c(=O)c2cnc(Nc3ccc(N4CCNCC4)cc3)nc12  IC50 (Tyrosine-protein kinase JAK2, JH1-JH2 domains (JAK2, Homo sapiens, UniProt O60674); kinase activity, inhibitor, SelectScreen kinase profiling): > 10 µM
Cc1ncsc1-c1ccc(C(C)NC(=O)C2CC(O)CN2C(=O)C(NC(=O)CCCCCCCCCCN2CCCC(Nc3ncc(Cl)c(Nc4ccccc4S(=O)(=O)C(C)C)n3)C2)C(C)(C)C)cc1 (stereo not drawn)  log2 fold change (22Rv1; RNA-seq, item: S1PR3 mRNA; concentration not given; relative to: DMSO): -1.68
CNS(=O)(=O)Nc1nccc(Cc2c(C)c3ccc(Oc4ncccc4F)cc3oc2=O)c1F  IC50 (JM1; cell viability; 7 days): > 1 µM
COC1CN([C@H]2CC[C@H]([C@@]3(C)Oc4c(Cl)cc(C(=O)NCc5c(SC)cc(C)[nH]c5=O)c(C)c4O3)CC2)C1  log2 fold change (RNA-seq, item: CACHD1 mouse homolog; mouse, HT-1376 xenograft, whole blood; dose not given; relative to: vehicle): 3.43

For quick reference, copied from above:
CCCC[C@H](NC(=O)CNC(=O)CNC(=O)[C@H](CCCCNC(=O)[C@H](CC(=O)O)NC(=O)C(C)c1ccc(CC(C)C)cc1)NC(=O)CN1CCN(CC(=O)O)CCN(CC(=O)O)CCN(CC(=O)O)CC1)C(=O)N[C@H]1CC(=O)NCCCC[C@@H](C(N)=O)NC(=O)[C@H](Cc2c[nH]c3ccccc23)NC(=O)[C@H](CCCNC(=N)N)NC(=O)[C@@H](Cc2ccccc2)NC(=O)[C@H](Cc2c[nH]cn2)NC1=O (stereo partly drawn) [lutetium-177 labelled]  tissue uptake (C57 mice, tumour-bearing, blood; 2 h): 0.87 ± 0.31 %ID/g
Nc1ncc(-c2cc(-c3cnn(CC(F)(F)F)c3)ncc2F)nc1C(=O)NC1CNCC(F)C1 (stereo not drawn)  remaining binding (GSK3A; KINOMEscan; 1 µM; relative to: DMSO control): 67%
CCCC[C@H](NC(=O)COCCOCCNC(=O)CN1CCN(CC(=O)O)CCN(CC(=O)O)CC1)C(=O)N[C@H]1CC(=O)NCCCC[C@@H](C(N)=O)NC(=O)[C@H](Cc2c[nH]c3ccccc23)NC(=O)[C@H](CCCNC(=N)N)NC(=O)[C@@H](Cc2ccccc2)NC(=O)[C@H](Cc2c[nH]cn2)NC1=O [fluorine-18 labelled]  tissue uptake (C57 mice B16-F10 melanoma, kidneys; intravenous, 0.37 MBq, 1 h): 2.07 ± 0.43 %ID/g
